Results collected from several papers.
Each line is one published result; not all experiments were run side by side. Numbers after ± are the reported error.
Nuclear receptor subfamily 2 group C member 2 ligand-binding domain: Nuclear receptor subfamily 2 group C member 2, ligand-binding domain (Homo sapiens, UniProt P49116)
Sequence of UniProt P49116 (whole entry, looked up): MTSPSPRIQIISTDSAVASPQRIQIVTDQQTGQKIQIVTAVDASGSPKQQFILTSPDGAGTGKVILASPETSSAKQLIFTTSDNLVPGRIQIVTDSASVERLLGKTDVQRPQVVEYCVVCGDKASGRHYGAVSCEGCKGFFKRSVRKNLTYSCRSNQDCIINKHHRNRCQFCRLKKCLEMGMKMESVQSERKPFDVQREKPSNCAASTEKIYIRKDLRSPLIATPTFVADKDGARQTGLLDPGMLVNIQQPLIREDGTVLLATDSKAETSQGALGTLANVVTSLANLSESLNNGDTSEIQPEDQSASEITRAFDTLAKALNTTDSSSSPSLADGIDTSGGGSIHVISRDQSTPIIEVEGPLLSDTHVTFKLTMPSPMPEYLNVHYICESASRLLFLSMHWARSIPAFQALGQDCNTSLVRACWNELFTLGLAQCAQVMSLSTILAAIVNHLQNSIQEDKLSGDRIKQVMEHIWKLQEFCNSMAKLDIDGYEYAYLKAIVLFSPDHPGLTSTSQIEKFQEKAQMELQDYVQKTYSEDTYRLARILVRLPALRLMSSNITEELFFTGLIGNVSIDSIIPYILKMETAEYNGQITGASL
Sequence of UniProt Q14767 (whole entry, looked up): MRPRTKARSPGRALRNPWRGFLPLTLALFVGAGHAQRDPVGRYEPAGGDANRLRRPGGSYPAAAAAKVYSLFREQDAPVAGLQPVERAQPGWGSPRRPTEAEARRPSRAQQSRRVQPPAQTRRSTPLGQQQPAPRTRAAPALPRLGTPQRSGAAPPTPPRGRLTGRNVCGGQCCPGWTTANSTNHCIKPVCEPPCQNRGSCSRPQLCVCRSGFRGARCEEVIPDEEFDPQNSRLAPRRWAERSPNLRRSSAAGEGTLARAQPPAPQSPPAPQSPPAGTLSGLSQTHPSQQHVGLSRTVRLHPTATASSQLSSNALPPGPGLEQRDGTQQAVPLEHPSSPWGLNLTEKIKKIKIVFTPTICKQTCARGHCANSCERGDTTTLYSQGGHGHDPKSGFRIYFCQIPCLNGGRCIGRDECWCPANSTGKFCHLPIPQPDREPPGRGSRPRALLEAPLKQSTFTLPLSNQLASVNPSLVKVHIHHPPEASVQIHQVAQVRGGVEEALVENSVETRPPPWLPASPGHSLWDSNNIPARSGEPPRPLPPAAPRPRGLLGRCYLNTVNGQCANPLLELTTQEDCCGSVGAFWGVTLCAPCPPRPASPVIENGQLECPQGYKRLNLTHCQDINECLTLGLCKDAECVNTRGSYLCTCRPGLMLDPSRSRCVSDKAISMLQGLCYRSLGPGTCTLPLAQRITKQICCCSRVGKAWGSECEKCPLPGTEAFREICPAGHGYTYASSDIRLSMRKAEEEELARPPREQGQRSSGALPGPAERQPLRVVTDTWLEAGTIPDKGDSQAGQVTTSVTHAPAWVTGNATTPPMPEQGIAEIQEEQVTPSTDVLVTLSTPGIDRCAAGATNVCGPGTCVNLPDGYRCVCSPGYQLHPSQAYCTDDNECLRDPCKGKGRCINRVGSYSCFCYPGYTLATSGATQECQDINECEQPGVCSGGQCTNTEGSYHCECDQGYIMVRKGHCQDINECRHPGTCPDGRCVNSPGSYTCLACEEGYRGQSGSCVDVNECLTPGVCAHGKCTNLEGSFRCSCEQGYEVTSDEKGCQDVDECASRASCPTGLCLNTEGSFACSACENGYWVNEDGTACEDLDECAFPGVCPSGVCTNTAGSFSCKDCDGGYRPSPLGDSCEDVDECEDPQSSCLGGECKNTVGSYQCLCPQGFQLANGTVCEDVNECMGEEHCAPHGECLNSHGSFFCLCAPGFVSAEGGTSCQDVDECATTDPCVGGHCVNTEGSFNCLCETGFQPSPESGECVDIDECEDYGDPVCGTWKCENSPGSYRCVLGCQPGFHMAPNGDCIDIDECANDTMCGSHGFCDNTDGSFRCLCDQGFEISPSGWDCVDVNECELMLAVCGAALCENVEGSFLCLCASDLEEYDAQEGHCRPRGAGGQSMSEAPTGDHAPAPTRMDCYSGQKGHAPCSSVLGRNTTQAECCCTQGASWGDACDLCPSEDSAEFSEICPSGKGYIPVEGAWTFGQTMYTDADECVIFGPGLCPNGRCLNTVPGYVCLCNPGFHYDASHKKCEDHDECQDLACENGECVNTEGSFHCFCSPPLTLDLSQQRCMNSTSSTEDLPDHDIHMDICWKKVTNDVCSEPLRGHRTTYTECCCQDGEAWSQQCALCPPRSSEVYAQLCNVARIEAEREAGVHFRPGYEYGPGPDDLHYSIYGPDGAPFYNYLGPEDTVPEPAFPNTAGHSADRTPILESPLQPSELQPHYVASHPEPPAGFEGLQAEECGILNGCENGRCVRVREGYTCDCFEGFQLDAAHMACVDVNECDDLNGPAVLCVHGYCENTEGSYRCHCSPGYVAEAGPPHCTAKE
Sequence of UniProt P63208 (whole entry, looked up): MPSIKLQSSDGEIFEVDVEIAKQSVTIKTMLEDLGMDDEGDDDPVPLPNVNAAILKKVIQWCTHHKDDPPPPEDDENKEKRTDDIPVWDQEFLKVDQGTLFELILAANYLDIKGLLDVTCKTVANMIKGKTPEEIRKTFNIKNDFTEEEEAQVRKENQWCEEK
Sequence of UniProt P30988 (whole entry, looked up): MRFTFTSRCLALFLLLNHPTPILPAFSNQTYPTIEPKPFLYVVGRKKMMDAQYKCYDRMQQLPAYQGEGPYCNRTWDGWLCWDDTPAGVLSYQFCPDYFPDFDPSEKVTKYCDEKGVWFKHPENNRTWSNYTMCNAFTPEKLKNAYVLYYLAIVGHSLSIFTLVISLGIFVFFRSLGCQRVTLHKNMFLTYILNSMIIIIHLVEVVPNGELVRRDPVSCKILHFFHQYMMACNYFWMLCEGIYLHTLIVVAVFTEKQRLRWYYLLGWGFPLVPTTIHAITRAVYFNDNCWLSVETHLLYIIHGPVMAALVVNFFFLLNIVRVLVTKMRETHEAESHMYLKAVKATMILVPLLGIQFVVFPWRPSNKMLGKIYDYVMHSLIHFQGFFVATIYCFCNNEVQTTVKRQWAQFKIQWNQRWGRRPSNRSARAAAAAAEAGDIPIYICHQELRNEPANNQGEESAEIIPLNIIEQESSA
Sequence of UniProt Q99814 (whole entry, unmodified, looked up): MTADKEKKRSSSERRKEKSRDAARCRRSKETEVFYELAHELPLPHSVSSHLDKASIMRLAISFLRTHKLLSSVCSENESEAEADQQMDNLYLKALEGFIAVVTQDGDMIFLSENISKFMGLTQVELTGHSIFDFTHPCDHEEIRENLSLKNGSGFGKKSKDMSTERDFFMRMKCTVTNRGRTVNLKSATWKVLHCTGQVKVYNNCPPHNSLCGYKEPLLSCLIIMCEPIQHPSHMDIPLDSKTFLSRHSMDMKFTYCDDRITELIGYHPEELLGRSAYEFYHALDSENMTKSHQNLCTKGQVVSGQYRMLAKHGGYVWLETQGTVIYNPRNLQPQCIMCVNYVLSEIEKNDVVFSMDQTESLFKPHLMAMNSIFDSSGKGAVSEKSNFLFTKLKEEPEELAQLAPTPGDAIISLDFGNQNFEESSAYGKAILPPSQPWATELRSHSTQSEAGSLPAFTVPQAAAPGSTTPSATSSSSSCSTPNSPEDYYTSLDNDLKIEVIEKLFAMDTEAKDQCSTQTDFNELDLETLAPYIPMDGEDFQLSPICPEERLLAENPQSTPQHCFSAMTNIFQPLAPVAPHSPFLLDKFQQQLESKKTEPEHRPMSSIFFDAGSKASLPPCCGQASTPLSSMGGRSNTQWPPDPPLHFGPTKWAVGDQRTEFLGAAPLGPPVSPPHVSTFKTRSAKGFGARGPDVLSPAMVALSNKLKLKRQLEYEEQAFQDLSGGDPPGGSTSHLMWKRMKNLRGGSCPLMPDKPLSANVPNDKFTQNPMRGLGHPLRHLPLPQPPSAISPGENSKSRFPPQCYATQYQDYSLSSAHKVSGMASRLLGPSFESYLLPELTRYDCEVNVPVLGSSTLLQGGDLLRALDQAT
Sequence of UniProt Q16774 (whole entry, unmodified, looked up): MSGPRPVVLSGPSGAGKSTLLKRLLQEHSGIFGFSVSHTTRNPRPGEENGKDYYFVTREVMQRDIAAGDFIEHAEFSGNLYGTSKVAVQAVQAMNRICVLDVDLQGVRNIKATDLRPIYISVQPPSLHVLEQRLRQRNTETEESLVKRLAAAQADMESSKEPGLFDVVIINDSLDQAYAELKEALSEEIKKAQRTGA
Sequence of UniProt Q06187 (whole entry, unmodified, looked up): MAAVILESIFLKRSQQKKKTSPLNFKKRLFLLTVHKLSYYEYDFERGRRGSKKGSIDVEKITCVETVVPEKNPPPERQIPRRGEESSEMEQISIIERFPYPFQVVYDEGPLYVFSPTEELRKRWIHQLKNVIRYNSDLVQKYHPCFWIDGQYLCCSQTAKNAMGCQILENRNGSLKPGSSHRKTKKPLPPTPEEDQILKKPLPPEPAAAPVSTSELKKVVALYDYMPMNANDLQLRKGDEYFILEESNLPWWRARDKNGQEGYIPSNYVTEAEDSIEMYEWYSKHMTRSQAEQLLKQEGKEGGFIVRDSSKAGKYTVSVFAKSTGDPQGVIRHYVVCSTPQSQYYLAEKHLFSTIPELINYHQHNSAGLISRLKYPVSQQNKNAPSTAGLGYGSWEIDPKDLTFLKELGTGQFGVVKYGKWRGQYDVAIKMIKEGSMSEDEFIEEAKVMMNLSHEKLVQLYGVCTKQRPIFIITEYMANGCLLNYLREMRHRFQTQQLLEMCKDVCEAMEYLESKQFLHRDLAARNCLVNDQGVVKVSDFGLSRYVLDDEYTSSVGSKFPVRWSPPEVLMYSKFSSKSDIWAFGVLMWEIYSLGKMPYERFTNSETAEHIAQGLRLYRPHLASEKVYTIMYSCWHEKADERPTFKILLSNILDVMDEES
Sequence of UniProt P07737 (whole entry, looked up): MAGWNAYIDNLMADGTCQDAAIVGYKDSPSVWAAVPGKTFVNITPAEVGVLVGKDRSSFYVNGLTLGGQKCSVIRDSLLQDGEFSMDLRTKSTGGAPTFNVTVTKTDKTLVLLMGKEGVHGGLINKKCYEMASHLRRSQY

Structure (SMILES)	tested on	assay	test system	setting	endpoint	result
COC(=O)C[C@@H]1N=C(c2ccc(Cl)cc2)c2c(sc(C(=O)NCCOCCNC(=O)C[C@@H]3N=C(c4ccc(Cl)cc4)c4c(sc(C)c4C)-n4c(C)nnc43)c2C)-n2c(C)nnc21	Bromodomain testis-specific protein, BD1 and BD2 (BRDT, Homo sapiens, UniProt Q58F21)				Kd	0.42 nM
CC(C)C[C@H](NC(=O)[C@H](CCC(=O)O)NC(=O)[C@H](CCC(N)=O)NC(=O)[C@H](CO)NC(=O)CCCCCNC(=S)Nc1ccc2c(c1)C(=O)OC21c2ccc(O)cc2Oc2cc(O)ccc21)C(=O)N[C@@H](Cc1c[nH]cn1)C(=O)N[C@@H](CCCCN)C(=O)N[C@@H](CC(C)C)C(=O)N[C@@H](CCC(N)=O)C(=O)N[C@H](C(=O)N[C@@H](Cc1ccc(O)cc1)C(=O)N1CCC[C@H]1C(=O)N[C@@H](CCCNC(=N)N)C(=O)N[C@H](C(=O)N[C@@H](CC(N)=O)C(=O)N[C@H](C(=O)NCC(=O)N[C@@H](CO)C(=O)NCC(=O)N[C@H](C(=O)N1CCC[C@H]1C(N)=O)[C@@H](C)O)[C@@H](C)O)[C@@H](C)O)[C@@H](C)O	Calcitonin receptor, extracellular domain (CALCR, Homo sapiens, UniProt P30988)	peptide binding, fluorescence polarization		pH 7.4	Kd	1150 nM
NC(=O)c1ccc[n+]([C@@H]2O[C@H](COP(=O)([O-])OP(=O)(O)OC[C@H]3O[C@@H](n4cnc5c(N)ncnc54)[C@H](O)[C@@H]3O)[C@@H](O)[C@H]2O)c1	Polyketide synthase, terminal amidation domain (Moorena producens, UniProt F4Y2B0)	binding, tryptophan fluorescence quenching			Kd	440000 ± 50000 nM
NC(=O)C1=CN([C@@H]2O[C@H](COP(=O)(O)OP(=O)(O)OC[C@H]3O[C@@H](n4cnc5c(N)ncnc54)[C@H](O)[C@@H]3O)[C@@H](O)[C@H]2O)C=CC1	Non-selective voltage-gated ion channel VDAC1 (Vdac1, Mus musculus, UniProt Q60932, N251K)	binding, fluorescence polarization			Kd	6830 ± 60 nM
N[C@@H](CCC(=O)N[C@@H](CS)C(=O)NCC(=O)O)C(=O)O	Cu(I)	binding, bicinchoninic acid competition		1000 µM, together with: bicinchoninic acid 40 µM	Kd	0.0315 nM
CN(C)CCC(c1ccc(Cl)cc1)c1ccccn1 (stereo not drawn)	Nuclear receptor subfamily 2 group C member 2 ligand-binding domain	SPR imaging			Kd	0.0396 nM
C[C@H](N)C(=O)N[C@@H](CCCNC(=N)N)C(=O)N[C@H](C(=O)N[C@@H](CCCCN)C(=O)N[C@@H](CCC(N)=O)C(=O)N[C@H](C(=O)N[C@@H](C)C(=O)N[C@@H](CCCNC(=N)N)C(=O)N[C@@H](CCCCN)C(=O)N[C@@H](CO)C(=O)O)[C@@H](C)O)[C@@H](C)O	Transcriptional regulator ATRX (ATRX, Homo sapiens, UniProt P46100, F284Y/K251R)	binding			Kd	3600 nM
CCCN1CCN(c2ccc(-c3cncc(Cl)c3N3CCC4(CCNC4=O)CC3)cc2)CC1	MED1 (human)	SILAC competition displacement	LS174T-L5 cell lysate		Kd	3 nM
Cc1ncc([N+](=O)[O-])n1CCO	Nuclear receptor subfamily 2 group C member 2 ligand-binding domain	SPR imaging			Kd	2.11 nM
CC(=O)N[C@@H](COP(=O)(O)O)C(=O)N1CCC[C@H]1C(=O)N[C@H](C(=O)N[C@@H](Cc1ccccc1)C(N)=O)[C@@H](C)O	Breast cancer type 1 susceptibility protein, tandem BRCT domains (BRCA1, Homo sapiens, UniProt P38398)	binding to BACH1 peptide, isothermal titration calorimetry		BRCT domain	Kd	2310 ± 60 nM
Cc1n[nH]c(C)c1C(c1ccc(Br)cc1)c1c(C)n[nH]c1C	Profilin-1 (PFN1, Homo sapiens, UniProt P07737)				Kd	~60000 nM
COc1ccc(F)cc1C(=O)NCc1ccc(-c2nn([C@@H](C)C(F)(F)F)c(N)c2C(N)=O)cc1	Tyrosine-protein kinase BTK (BTK, Homo sapiens, UniProt Q06187, C481S)	surface plasmon resonance			Kd	1.5 nM
OCC(CO)N[C@H]1C[C@](O)(CO)[C@@H](O)[C@H](O)[C@H]1O	Nuclear receptor subfamily 2 group C member 2 ligand-binding domain	SPR imaging			Kd	0.0824 nM
O=[N+]([O-])c1cc(C(F)(F)F)ccc1NCc1ccco1	Endothelial PAS domain-containing protein 1, PAS-B domain (EPAS1, Homo sapiens, UniProt Q99814, N288Q)	ITC, reverse mode		25 °C	Kd	1570 ± 70 nM
COc1ccccc1S(=O)(=O)Nc1ccc2c(c1)CN(C)C(=O)N2	OCI-Ly1			0.1 µM, 120 h	viability	183%
CCOc1ccc2ccccc2c1C(=O)N[C@@H]1C(=O)N2[C@@H]1SC(C)(C)[C@@H]2C(=O)O	Nuclear receptor subfamily 2 group C member 2 ligand-binding domain	SPR imaging			Kd	0.303 nM
C[S+](CC[C@H](N)C(=O)O)C[C@H]1O[C@@H](n2cnc3c(N)ncnc32)[C@H](O)[C@@H]1O (stereo partly drawn)	O-methyltransferase (Sorghum bicolor, UniProt A0A1B6PFV1)	ITC		together with: saturating PTR	Kd	139000 ± 45800 nM
Nc1ncnc2c1ncn2[C@@H]1O[C@H](COP(=O)(O)OP(=O)(O)OP(=O)(O)O)[C@@H](O)[C@H]1O	Creatine kinase U-type, mitochondrial (CKMT1A, Homo sapiens, UniProt P12532, E265Q)	microscale thermophoresis		pH 7.0, E227Q mutant, no substrate	Kd	22000 ± 16000 nM
Nc1nc(O)c2ncn(COC(CO)CO)c2n1	Nuclear receptor subfamily 2 group C member 2 ligand-binding domain	SPR imaging			Kd	1.71 nM
Nc1nc2c(ncn2[C@@H]2O[C@H](COP(=O)(O)O)[C@@H](O)[C@H]2O)c(=O)[nH]1	GUK1 (Homo sapiens, UniProt Q16774, S13A)	binding, ITC		25 °C	Kd	37000 ± 2000 nM
Cc1cc2nc3c(=O)[nH]c(=O)nc-3n(C[C@H](O)[C@H](O)[C@H](O)COP(=O)(O)OP(=O)(O)OC[C@H]3O[C@@H](n4cnc5c(N)ncnc54)[C@H](O)[C@@H]3O)c2cc1C	Latent-transforming growth factor beta-binding protein 2 (LTBP2, Homo sapiens, UniProt Q14767)	binding, MS pulldown competition	SW-620 cell lysate		Kd	10700 nM
O=C(O)c1cc(/N=N/c2ccc(S(=O)(=O)Nc3ccccn3)cc2)ccc1O	Nuclear receptor subfamily 2 group C member 2 ligand-binding domain	SPR imaging			Kd	0.0152 nM
COC(=O)c1cc(C)c2cc(C(=O)NC3CCN(c4cc(C)nn4C)C3)[nH]c2c1 (stereo not drawn)	S-phase kinase-associated protein 1 (SKP1, Homo sapiens, UniProt P63208)	binding, SPR		20 °C	Kd	10000 nM
CCCCCCCC(=O)OC[C@H](COP(=O)(O)O[C@@H]1[C@H](O)[C@H](OP(=O)(O)O)[C@@H](O)[C@H](O)[C@H]1O)OC(=O)CCCCCCC	PP2C family protein phosphatase (Vibrio splendidus, UniProt A0ABV4LX41)	binding, microscale thermophoresis		together with: diC8 50 µM	Kd	280 ± 71 nM
Nc1ncnc2c1ncn2[C@@H]1O[C@H](COP(=O)(O)OP(=O)(O)OP(=O)(O)O)[C@@H](O)[C@H]1O	Cystic fibrosis transmembrane conductance regulator (CFTR, Homo sapiens, UniProt P13569)	channel open probability, inside-out patch clamp	CHO-K1		Kd	281000 nM
CN(C)CCC(c1ccc(Br)cc1)c1ccccn1 (stereo not drawn)	Nuclear receptor subfamily 2 group C member 2 ligand-binding domain	SPR imaging			Kd	0.103 nM
CC(C)C[C@@H]1NC(=O)[C@H](C)NC(=O)CNC(=O)[C@H](CC(N)=O)NC(=O)[C@@H]2CCCN2C(=O)[C@H](Cc2ccc(O)cc2)NC(=O)[C@H](CCCNC(=N)N)NC(=O)[C@H](Cc2ccccc2)NC(=O)[C@@H](NC(=O)[C@H](CCCCN)NC(=O)[C@@H]2CCCN2C(=O)[C@H](CO)NC(=O)[C@H](C)NC(=O)[C@@H](N)Cc2ccc(O)cc2)CSSC[C@@H](C(=O)N[C@H](C(N)=O)[C@@H](C)O)NC(=O)[C@H](C)NC1=O	Alpha-2-HS-glycoprotein, asialo (AHSG, Bos taurus, UniProt P12763)	binding, isothermal titration calorimetry		pH 7.0, 25 °C, together with: asialofetuin	Kd	101000 nM
C#Cc1c(F)ccc2cc(O)cc(-c3ncc4c(N5CC6CCC(C5)N6)nc(OC[C@@]56CCCN5C[C@H](F)C6)nc4c3F)c12	MRAS, GDP-bound (Homo sapiens, UniProt O14807)	binding, surface plasmon resonance			Kd	> 30000 nM
CC(NC(=O)c1ccccc1/N=C/c1c(O)ccc2ccccc12)c1ccccc1 (stereo not drawn)	OCI-Ly1			0.1 µM, 120 h	viability	113%
Nc1nc(=O)[nH]cc1F	Nuclear receptor subfamily 2 group C member 2 ligand-binding domain	SPR imaging			Kd	9.86 nM

Excerpt of the above:
Structure (SMILES)	tested on	assay	test system	setting	endpoint	result
COc1ccccc1S(=O)(=O)Nc1ccc2c(c1)CN(C)C(=O)N2	OCI-Ly1			0.1 µM, 120 h	viability	183%
CCOc1ccc2ccccc2c1C(=O)N[C@@H]1C(=O)N2[C@@H]1SC(C)(C)[C@@H]2C(=O)O	Nuclear receptor subfamily 2 group C member 2 ligand-binding domain	SPR imaging			Kd	0.303 nM
C[S+](CC[C@H](N)C(=O)O)C[C@H]1O[C@@H](n2cnc3c(N)ncnc32)[C@H](O)[C@@H]1O (stereo partly drawn)	O-methyltransferase (Sorghum bicolor, UniProt A0A1B6PFV1)	ITC		together with: saturating PTR	Kd	139000 ± 45800 nM
Nc1ncnc2c1ncn2[C@@H]1O[C@H](COP(=O)(O)OP(=O)(O)OP(=O)(O)O)[C@@H](O)[C@H]1O	Creatine kinase U-type, mitochondrial (CKMT1A, Homo sapiens, UniProt P12532, E265Q)	microscale thermophoresis		pH 7.0, E227Q mutant, no substrate	Kd	22000 ± 16000 nM
